# Published values pooled from the literature.
# Compare with care: the assays were run in different laboratories. Numbers after ± are the reported error.
SMILES,cell line,assay,conditions,IC50
CCCCCC(C)n1c(-c2cccnc2)nc(-c2ccc(C)cc2)c1-c1ccc(C)cc1 (stereo not shown),L929,"cell growth or viability, SRB",,57.2 µM
C=CCc1ccc(OC(C)=O)c(OC)c1,HSC-4,MTT,24 h,> 50 µM
C[C@H]1[C@H](C)CC[C@]2(C)CC[C@]3(C)C(=CC(=O)[C@@H]4[C@@]5(C)CC[C@@H](O)[C@](C)(C(=O)NCCNC(=O)C6CCCCC6)[C@@H]5CC[C@]43C)[C@H]12,HBE,"cell growth or viability, MTT",48 h,25.7 µM
COc1ccc2cc3[n+](cc2c1OCc1cn(Cc2ccc(Cl)cc2)nn1)CCc1cc2c(cc1-3)OCO2,SW1990,"cell growth or viability, MTT",,37.9 µM
Cc1cc(/C=C/C#N)cc(C)c1Oc1cc(Nc2ccc(C#N)cn2)nc2cnccc12,HuCC-A1,,48 h,5.6 ± 1.3 µM
N#C/C(=C\c1cn(-c2ccccc2)nc1-c1ccccc1)c1nc2ccccc2[nH]1,SW1990,"cell growth or viability, ATP luminescence",72 h,> 100 µM
Cc1cc(C)c(-n2c3c([n+](-c4c(C)cc(C)cc4C)[c]2[Au-][Cl])-c2cccc4cccc-3c24)c(C)c1,2008,"cell growth, MTT",72 h,8 ± 1 µM
C[C@H]1[C@H](C)CC[C@]2(C)CC[C@]3(C)C(=CC(=O)[C@@H]4[C@@]5(C)CC[C@@H](O)[C@](C)(C(=O)NCCNC(=O)c6ccccc6)[C@@H]5CC[C@]43C)[C@H]12,HBE,"cell growth or viability, MTT",48 h,11 µM
CC(C)c1cccc(C(C)C)c1-n1c(Cl)c(Cl)n(-c2c(C(C)C)cccc2C(C)C)c1=[Se].[Cl][Ag],human ovarian cancer cells,"cell viability, MTT",72 h,4.4 ± 1.2 µM
CCCCCCCCC=CCCCCCCCC(=O)OCC1OC(n2ccc(N)nc2=O)C(F)(F)C1O (stereo not shown),"AG6000 (gemcitabine-resistant A2780, dCK-deficient)","cell growth, SRB",72 h,91 ± 6 µM
O=C(Cc1ccc2ccccc2c1)N[C@H](Cc1ccccc1)C(=O)N[C@H](Cc1ccc(O)cc1)C(=O)N[C@H](Cc1ccccc1)C(=O)N[C@H](Cc1ccc(OP(=O)(O)O)cc1)C(=O)O,T98G,"cell growth or viability, MTT",,283 µg/mL
CCCC(CCC)C(=O)[O][Pt]([NH2])([NH2])([Cl])([Cl])[O]C(=O)C(Cl)Cl,LoVo,"cell growth or viability, MTT",72 h,0.757 µM
COc1ccc2cc3[n+](cc2c1OCc1cn(Cc2ccccc2Cl)nn1)CCc1cc2c(cc1-3)OCO2,SW1990,"cell growth or viability, MTT",,40.7 µM
OC[C@H]1[C@@H](O)[C@@H](O)CN1CCc1ccccc1,U2OS,"cell growth or viability, MTS",72 h,> 200 µM
COc1ccc(C[C@H]2COC(=O)[C@@H]2Cc2ccc(OCCCCCCCC(=O)NO)c(OC)c2)cc1OC,Kasumi 1,"cell growth or viability, CCK-8",48 h,> 5 µM
C=C1C(=O)[C@@]23CC[C@@H]4[C@](C)(COC(C)=O)CCC[C@@]4(COC(C)=O)[C@@H]2[C@@H](O)C[C@@H]1C3,HBE,"cell growth or viability, MTT",,2.4 µM
Nc1ccc(/C=C/C(=O)N2CCc3c(oc4c(-c5ccc(F)cc5)cc(-c5ccc(C(=O)N6CCC(F)(F)CC6)cc5)cc34)C2)cn1,U2OS,"cell growth or viability, CCK-8",72 h,~2 µM
N=C(N/N=C/c1cncnc1)N/N=C/c1cncnc1,KP-4,"cell growth, crystal violet",72 h,119 ± 14.3 µM
COC(=O)[C@@]1(C)C=C(C(=O)Nc2cccc(C(=O)Nc3ccc(Nc4nccc(-c5cccnc5)n4)c(C)c3)c2)C(=O)CC1,SH-SY5Y MKK7 inducible,"c-Jun Ser63 phosphorylation, inhibitor, HTRF, measured: phospho-c-Jun Ser63","6 h, with: doxycycline",~0.1 µM

# Repeated from above:
SMILES,cell line,assay,conditions,IC50
COc1ccc(C[C@H]2COC(=O)[C@@H]2Cc2ccc(OCCCCCCCC(=O)NO)c(OC)c2)cc1OC,Kasumi 1,"cell growth or viability, CCK-8",48 h,> 5 µM
